Measurements gathered from unrelated publications.
Parts stem from different laboratories: compare values within a part only. Substitutions count along the parent as printed.

Series 1
Target: Hepatocyte nuclear factor 3-alpha (Foxa1, Mus musculus, UniProt P35582, residues 1-468, full length assumed)
Sequence of UniProt P35582 (whole entry, looked up): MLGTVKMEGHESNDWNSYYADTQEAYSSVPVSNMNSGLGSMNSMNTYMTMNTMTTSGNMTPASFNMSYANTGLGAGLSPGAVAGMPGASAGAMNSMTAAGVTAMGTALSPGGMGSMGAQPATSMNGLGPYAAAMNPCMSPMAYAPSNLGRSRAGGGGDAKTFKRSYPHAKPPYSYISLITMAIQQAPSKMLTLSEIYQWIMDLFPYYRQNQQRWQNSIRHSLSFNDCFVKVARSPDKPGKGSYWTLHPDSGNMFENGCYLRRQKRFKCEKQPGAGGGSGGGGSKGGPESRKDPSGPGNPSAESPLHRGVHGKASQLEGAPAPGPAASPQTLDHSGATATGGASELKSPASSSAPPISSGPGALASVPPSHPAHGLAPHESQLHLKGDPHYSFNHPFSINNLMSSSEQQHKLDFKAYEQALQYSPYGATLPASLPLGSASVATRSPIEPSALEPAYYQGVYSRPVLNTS
Method: EMSA with sequencing
Form: double-stranded DNA, one strand shown
Sample: in vitro
Tested at: 10 and 20 nM
Setting: whole designed probe, mean of two concentrations, ends assumed
Reference: negative control set to 0
Direction: higher = stronger binding
Quantity: normalised bound fraction
Shared flanks, not repeated: GTGAGCGGTGCCCATTGATGGGGAAC … TTTCACTGGGATCGTGGGGAC
TTTATGATCTGAGTATATATAGTAAGTACCTCCCCTTTCAGGGTAAGGCAGTAGGTAATGGTGAACAGGGAAGCAAAAGGTGACTCAGGTTGAGTAAACAACACCAAGCATATCTGACTCAAGGAATGCTTCAGAGGCCAGGGGTGCATGCCTGTAATCCCAGCACCTTGGAAGGCTGACACAGGAGGATCAC: 0.385 ratio
TTCTGAAGAGTCAGAGAAGTTCTGAGTCACCTGGAGATCATTCCAGGAGGAATAAAAGACTTCTACATGTAACCAGCTTACATCATATCCAAAATAATCTCAAGGAATATTTAAGCATGACCAAAATGCTGTAATTATTTAATGACAAAACCACATATAACAGGAGGTGGGGACAGTTATTATAAGAACTGGC: -0.00909 ratio
GAGCTGCTTGCAATTGAGTTGTATGTATGCTTCCACTTAATACGTCCTGCCGAGCCTGTAAGCCAACCACTTCCGGCAGGAATCTGCCCTCTGTGTTTACCTACTCTCTTTTTATGTCTTATTCCCAGAATGACTGGGGACCAAAGGAATCCTTTGCAGGAGTTTTCTCCAGACAGACAGTTCCACATGCTAG: 0.26 ratio
ACAATTTTTATTTGAAGGTGCCATTTTTCAATATATTCAGATGATTGTGAGTGCCATTGATTCTGTATCATATGAACAATGGCAATACCTTCCATGTTTACATAATATTAAAAACCATGTTAAGACTGAATATTTGGTGTAATGGTGCATCACATTATTCTAGCTTCCATACTAGTTGTTTTATTTGTTTGTT: 0.539 ratio
CGGTGTAGGTTTATTGCCTACATTTATCATTGGAGAAAATGCTAAATTTCAGTTAGAGATTAGTGAAAATGAAATGTAATTTTCTCCTATTTTAGATTGCCCTTTGGGATCCTGGATGAAGAGCCCTGCATTACACTGGGCACAGTGGCTCATGCCTGCAATCCCAGCTACTAAGGAGGCTGAGGTAGGAGGA: -0.0732 ratio

Series 2
Target: CCNE2, cyclin fold, Cln2 fusion (human)
Method: yeast growth competition, sequencing
Sample: yeast
Setting: weak parent motif
Reference: not given
Direction: higher = stronger binding
Quantity: normalised enrichment score
Starting sequence: MICAL3 docking peptide (human); LQLRRQLSFSEDS; partner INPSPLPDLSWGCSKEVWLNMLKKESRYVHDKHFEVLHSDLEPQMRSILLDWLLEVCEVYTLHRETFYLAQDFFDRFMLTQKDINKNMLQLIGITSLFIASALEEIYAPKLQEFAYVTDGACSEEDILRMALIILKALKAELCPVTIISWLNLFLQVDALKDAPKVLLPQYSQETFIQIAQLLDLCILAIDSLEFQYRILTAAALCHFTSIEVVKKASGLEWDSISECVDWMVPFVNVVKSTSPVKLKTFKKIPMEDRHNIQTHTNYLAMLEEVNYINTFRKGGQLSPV
Q6I: 0.729
D12P: 0.852
S8Q: 0.532
R4H: -0.0342
F9L: -0.12
Q6P: 0.0674
R5P: 0.0628
F9H: -0.336
Q6A: -0.0525
S8I: 0.7
S10A: 0.384
F9A: 0.253
L3I: 0.871
S10N: 0.266
E11N: 0.736
R5L: 0.0203
E11A: 0.553
Q2E: 0.0604
L7H: 0.283
R5K: 0.219
E11P: 0.554
L7Y: 0.293

Series 3
Target: RNA binding protein fox-1 homolog 2, RRM domain, GST-SBP tag (RBFOX2, Homo sapiens, UniProt O43251-10, residues 100-194)
Method: RNA Bind-n-Seq
Form: RNA
Sample: in vitro
Tested at: 365 nM
Setting: natural RNA segment, single round, ends assumed
Reference: no-protein control
Direction: higher = stronger binding
Quantity: RBNS enrichment (R)
Shared flanks, not repeated: GGGAGUUCUACAGUCCGACGAUC … UGGAAUUCUCGGGUGCCAA
Residues (chain): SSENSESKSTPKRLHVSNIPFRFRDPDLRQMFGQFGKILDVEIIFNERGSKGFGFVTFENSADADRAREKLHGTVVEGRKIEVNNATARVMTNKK
AUUCUGAAAAAUUUUACACAUGUAUGGCAACACCUGAUCUAUCGGUUAUCCAACGCUUCAUUGUACCAGACAUUGUCCAGAAGUUUCAAAGACCCUUUGCAAACCCUGAA: 0.258
UGUAGUUGCUUAUUCUUUCUGCCUUCUGCUUCAGCGUGAGGCUUCUUUGGUUUUCUGUGGCAGCGUCUCCCUUCUCAUUGUUUCUCUGUGUUUUAGUGGGGAUAGUACCA: 0.481
GAAGAGGUUUUCUUGAUAAUUUUCCUUUAAUAUGAAAUUUUCGUGCUUUAUCAGUAGCCCAGGAUAUAUUUUAUUUUUAGAAUUUUGUGAGCCAGACUUGUAUAUUCUAU: 0.721
AUGAAUACUCUCUAGGAAAUGUGCAAUUUCAUGGUAAUUAUUUUUUAGAAAAGUCAAUUUAAUAAAUUAUCGCCUUUAGCAUUGUAACAGUUUUCAAAAAUAAAGAAAAG: 0.546
UUAAGACAUAUACAAAGACAAAUGACAGCAAUUCAUGGUUCAAGUAUAAAGCAGUUCAUUCUACCAAGCUGUCACAGGAUCUUAGAGAAUUAUCUCAAGUAAAACAGUGA: 0.437
CUGACUUGCUCUCAGGCCCACCCGCAGCUUUUCCAAAUACCUGCAGCCUUCAGCCCUGCUGCCCUGCCUGUGGGAGCAGCUUUGACUCCAGUCCAGAAGGGUUUCUGCAG: 0.461
UUAUCAAAGUUAAAGCGCCUCUUCACUCAAAAGGGCUUCAAAAUGUAAAUGGCUCUAGAGUUAGAGUGACUGUUUGCUCUUCUGCUUUCUGGAAUGCAGAUGACAGUAUG: 0.486
AGGGGCAUUGAGAAAAAAAAAAUGAAGGCAUUUUACAGUCUCUAAACAUCUUUAAGUGCCAUGAGUAAUUUUUCCUGACUCUGUUUCAUAGCUUUGUAAGAAUUCUGUGU: 0.417

Series 4
Target: ABI1, truncated, D143A, DHFR fusion (Arabidopsis thaliana)
Method: DHFR PCA, deep sequencing
Sample: yeast
Setting: methotrexate growth selection, single substitutions
With: (+)-ABA 0.032 µM
Reference: wild-type fitted maximum
Direction: higher = stronger binding
Quantity: relative binding score
Starting sequence: PYL1, truncated, DHFR fusion (Arabidopsis thaliana); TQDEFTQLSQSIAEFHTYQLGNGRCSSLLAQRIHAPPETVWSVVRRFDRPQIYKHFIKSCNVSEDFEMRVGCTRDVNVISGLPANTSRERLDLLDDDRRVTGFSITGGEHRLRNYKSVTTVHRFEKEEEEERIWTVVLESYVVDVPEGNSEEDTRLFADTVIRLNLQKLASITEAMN; partner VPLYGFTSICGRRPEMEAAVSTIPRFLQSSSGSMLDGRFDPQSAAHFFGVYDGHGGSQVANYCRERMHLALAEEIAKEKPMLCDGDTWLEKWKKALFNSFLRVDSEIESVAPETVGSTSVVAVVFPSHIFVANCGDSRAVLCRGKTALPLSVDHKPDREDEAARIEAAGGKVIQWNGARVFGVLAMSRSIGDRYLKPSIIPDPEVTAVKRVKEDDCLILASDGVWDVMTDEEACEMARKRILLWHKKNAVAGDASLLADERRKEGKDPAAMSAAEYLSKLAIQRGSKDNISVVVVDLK
M68D: 3.79%
P36C: 10.3%
I162P: -2.19%
V121W: -3.63%
L112P: 5.7%
N177V: 37.4%
S26D: -2.12%
R45M: -0.656%
E139M: 2.86%
H55G: 4.21%
K58Q: 9.09%
L28M: 20.5%
S150T: 43.3%
I172A: -6.89%
E4K: 6.34%
E174Q: 0.779%
R88M: 0.611%
R111I: 7.06%
T119P: -2.05%
T106K: -2.58%
Q51S: 7.69%
F157P: 6.58%
N77E: 63.1%
V137S: -3.2%
A175G: 25.2%

Some of these lines once more (series 3):
CUGACUUGCUCUCAGGCCCACCCGCAGCUUUUCCAAAUACCUGCAGCCUUCAGCCCUGCUGCCCUGCCUGUGGGAGCAGCUUUGACUCCAGUCCAGAAGGGUUUCUGCAG: 0.461
AGGGGCAUUGAGAAAAAAAAAAUGAAGGCAUUUUACAGUCUCUAAACAUCUUUAAGUGCCAUGAGUAAUUUUUCCUGACUCUGUUUCAUAGCUUUGUAAGAAUUCUGUGU: 0.417
AUGAAUACUCUCUAGGAAAUGUGCAAUUUCAUGGUAAUUAUUUUUUAGAAAAGUCAAUUUAAUAAAUUAUCGCCUUUAGCAUUGUAACAGUUUUCAAAAAUAAAGAAAAG: 0.546
UGUAGUUGCUUAUUCUUUCUGCCUUCUGCUUCAGCGUGAGGCUUCUUUGGUUUUCUGUGGCAGCGUCUCCCUUCUCAUUGUUUCUCUGUGUUUUAGUGGGGAUAGUACCA: 0.481
UUAUCAAAGUUAAAGCGCCUCUUCACUCAAAAGGGCUUCAAAAUGUAAAUGGCUCUAGAGUUAGAGUGACUGUUUGCUCUUCUGCUUUCUGGAAUGCAGAUGACAGUAUG: 0.486
UUAAGACAUAUACAAAGACAAAUGACAGCAAUUCAUGGUUCAAGUAUAAAGCAGUUCAUUCUACCAAGCUGUCACAGGAUCUUAGAGAAUUAUCUCAAGUAAAACAGUGA: 0.437
GAAGAGGUUUUCUUGAUAAUUUUCCUUUAAUAUGAAAUUUUCGUGCUUUAUCAGUAGCCCAGGAUAUAUUUUAUUUUUAGAAUUUUGUGAGCCAGACUUGUAUAUUCUAU: 0.721
AUUCUGAAAAAUUUUACACAUGUAUGGCAACACCUGAUCUAUCGGUUAUCCAACGCUUCAUUGUACCAGACAUUGUCCAGAAGUUUCAAAGACCCUUUGCAAACCCUGAA: 0.258
